Experimental data from different studies.
Protocols differ between the studies behind these lines. “And” joins repeats or separate records; there may be more than shown. ± marks the error that the study gave.

Compound | target or system | assay | system | conditions | scale | endpoint | value
O=C(C[Se]C(=O)c1cccnc1Nc1cccc(C(F)(F)F)c1)Nc1cccc(C(F)(F)F)c1 | NCI60 breast subpanel mean | cell growth |  |  |  | TGI | 4.86 µM
Cc1cccc(-c2cccc(C)n2)n1.Cc1cccc(-c2cccc(C)n2)n1.F[P-](F)(F)(F)(F)F.F[P-](F)(F)(F)(F)F.[Ru+2].c1cc2ccc3ccc(-c4nc5c6cccnc6c6ncccc6c5[nH]4)c4ccc(c1)c2c34 | SK-MEL-28 |  |  | 1% O2, together with: green light 523 nm, 100 J/cm2 | relative to: dark over light EC50 | phototoxicity index | 1
CCN(C(=O)c1cc(F)ccc1Oc1nncnc1N1CCC2(C1)CN([C@H](CCCN(C)CCOC)C(C)C)C2)C(C)C | RD |  | muscle | 72 h |  | GI50 | > 10 µM
COc1ccc2c(c1)c(CC(=O)[Se]CC(=O)Nc1cccc(C(F)(F)F)c1)c(C)n2C(=O)c1ccc(Cl)cc1 | NCI60 prostate subpanel (PC-3, DU-145) | cell growth |  | 10 µM, 48 h, one-dose |  | mean growth percent | -81.9%
Cc1cccc(-c2cccc(C)n2)n1.Cc1cccc(-c2cccc(C)n2)n1.F[P-](F)(F)(F)(F)F.F[P-](F)(F)(F)(F)F.[Ru+2].c1ccc2c(c1)Cc1cc(-c3nc4c5cccnc5c5ncccc5c4[nH]3)ccc1-2 | SK-MEL-28 | resazurin |  | dark, 1% O2 |  | dark EC50 change hypoxia vs normoxia | no effect
COc1cc(N2CCN(C(=O)CN)CC2)ccc1Nc1ncc(Cl)c(Nc2ccccc2P(C)(C)=O)n1 | NCI-H3122 | CCK-8 |  | 500 nM, 48 h |  | viability | 21%
COC(=O)c1cc(NC2=NC(=O)C(=Cc3ccc(N(C)C)cc3)S2)ccc1OC(C)=O | A549 | refers to: CEP78 |  | 2.93 µM, 24 h | relative to: DMSO | mRNA level | 0.0161 fold change
CNS(=O)(=O)Nc1nccc(Cc2c(C)c3ccc(Oc4ncccc4F)cc3oc2=O)c1F | RD | cell viability |  | 7 days |  | IC50 | 0.0165 µM
CC(C)c1ccc(N(C)c2ccc3c(c2)OCC[C@H]3CNc2cnccc2C(=O)O)cc1 | SW579 | cell viability, CellTiter-Glo |  | 7 days |  | IC50 | ≥ 10 µM
CO[C@@H]1[C@@H](OC(N)=O)[C@@H](O)[C@H](Oc2ccc3c(O)c(NC(=O)c4ccc(O)c(CC=C(C)C)c4)c(=O)oc3c2C)OC1(C)C | HCT-116 parental |  |  | 250 µM, replicate 1 |  | colony count | 1.55
COC1CN([C@H]2CC[C@H]([C@@]3(C)Oc4c(Cl)cc(C(=O)NCc5c(SC)cc(C)[nH]c5=O)c(C)c4O3)CC2)C1 |  | RNA-seq, refers to: DIXDC1 | human, whole blood | dose not given, 24 h | relative to: pretreatment baseline | log2 fold change | 1.05
CC[C@@H](C)[C@@H](NC(=O)[C@@H](Cc1ccc(O)cc1)NC(=O)[C@H]1CCCN1C(=O)[C@@H](CCCNC(=N)N)NC(=O)[C@H](N)Cc1c[nH]cn1)C(=O)N[C@H](C)C(=O)N[C@H](Cc1c[nH]cn1)C(=O)N[C@H](CCCNC(=N)N)C(=O)N[C@@H](C(=O)N[C@H](Cc1ccc(O)cc1)C(=O)N[C@H](CO)C(=O)N[C@H](Cc1ccccc1)C(=O)NCC(=O)NCC(=O)NCC(=O)N[C@@H](CCCCNC(=O)CCCC[C@@H]1SC[C@@H]2NC(=O)N[C@@H]21)C(N)=O)C(C)C | HEK293T-OFP cells | flow cytometry |  | concentration not given, together with: biotin-labelled peptide |  | binding rate | 2.83% and 2.56% and 2.85%
CSCC[C@H](NC(=O)[C@H](CCC(N)=O)NC(=O)[C@H](CCCCN)NC(=O)[C@H](CCCNC(=N)N)NC(=O)[C@H](Cc1ccc(O)cc1)NC(=O)[C@H](CCCNC(=N)N)NC(=O)[C@H](CO)NC(=O)[C@H](Cc1ccc(O)cc1)NC(=O)[C@H](CO)NC(=O)[C@H](CC(=O)O)NC(=O)[C@@H](NC(=O)[C@@H](N)Cc1ccccc1)[C@@H](C)O)C(=O)N[C@@H](C)C(=O)N[C@H](C(=O)N[C@@H](CCCCN)C(=O)N[C@@H](CCCCn1cc(C[C@H](NC(=O)CNC(=O)[C@H](CO)NC(=O)[C@H](CCCNC(=N)N)NC(=O)[C@H](CO)NC(=O)[C@H](CC(C)C)NC(=O)[C@H](CC(C)C)NC(=O)CNC(=O)[C@H](C)NC(=O)[C@H](CC(C)C)NC(=O)[C@H](CCCNC(=N)N)NC(=O)[C@H](Cc2c[nH]cn2)NC(=O)[C@@H](NC(=O)[C@@H](N)C(C)C)[C@@H](C)O)C(=O)N[C@H](C(=O)N[C@H](C(=O)N[C@@H](CCCCN)C(=O)N[C@@H](CC(N)=O)C(=O)N[C@@H](CC(N)=O)C(=O)N[C@@H](Cc2ccccc2)C(=O)N[C@H](C(=O)N2CCC[C@H]2C(=O)N[C@H](C(=O)N[C@@H](CC(N)=O)C(=O)N[C@H](C(=O)NCC(=O)N[C@@H](CO)C(=O)N[C@@H](CCCCN)C(=O)N[C@@H](C)C(=O)N[C@@H](Cc2ccccc2)C(N)=O)C(C)C)[C@@H](C)O)C(C)C)C(C)C)C(C)C)nn1)C(=O)N[C@@H](Cc1ccc(O)cc1)C(=O)N[C@@H](CC(C)C)C(=O)N[C@@H](C)C(=O)N[C@@H](C)C(=O)N[C@H](C(=O)N[C@@H](CC(C)C)C(=O)NCC(=O)N[C@@H](CCCCN)C(=O)N[C@@H](CCCNC(=N)N)C(=O)N[C@@H](Cc1ccc(O)cc1)C(=O)N[C@@H](CCCCN)C(=O)N[C@@H](CCC(N)=O)C(=O)N[C@@H](CCCNC(=N)N)C(=O)N[C@H](C(=O)N[C@@H](CCCCN)C(=O)N[C@@H](CC(N)=O)C(=O)N[C@@H](CCCCN)C(N)=O)C(C)C)C(C)C)C(C)C | transfected COS-7 cells | cAMP accumulation, antagonist |  | together with: PACAP-27 |  | pA2 | 5.31
CCC1C(COc2nccc3cc(C(N)=O)c(OC)cc23)NC(=O)C1F (centres unmarked) | U2932 | cell growth or viability, WST-1 |  | 72 h |  | GI50 | > 10 µM
COc1ccccc1-c1ccncc1C(=O)Nc1nnc(OCc2ccc(Cl)cc2)s1 | MDA-MB-436 BRCA1-mutant |  |  | 3 µM, single replicate | relative to: untreated | colony survival | 40.5% and 55.3% and 50%
[Cl-].[Cl-].[Ru+2].c1ccc(-c2ccccn2)nc1.c1ccc(-c2ccccn2)nc1.c1ccc2cc3nc4c5cccnc5c5ncccc5c4nc3cc2c1 | SK-MEL-28 |  |  | light 633 nm, oxygen 18.5% | relative to: dark EC50 over light EC50 | phototherapeutic index | 221

Compound | target or system | assay | system | conditions | scale | endpoint | value
CN1CCN(C(=O)c2ccc(-c3cc4c(N5CCC[C@H](C(=O)NCc6ccc(OC(F)(F)F)cc6)C5)ncnc4[nH]3)cc2)CC1 | NCI-H3122 | cell growth or viability, MTT |  | 0.2 µg/mL, 72 h |  | inhibition | 51.3%
O=C(N1CCCC1)n1cc(-c2ccc(-c3ccccc3)cc2)nn1 | mouse T cells | N-terminal labelling proteomics, refers to: EFHD2 N-terminal peptides |  | 0.001 µM, 6 h | relative to: DMSO | SILAC ratio | 0.97
Cc1cc(Cl)cc(-c2ccnc3cc(CN4C(=O)C5C(C4=O)C5(C)C)sc23)c1C[C@@H]1CNCCO1 (some centres unmarked) | CHP-212 resistant subline R3 | annexin V/PI flow cytometry |  | 0.3 µM, 48 h |  | viable cells | 89.6% and 88% and 81.6%
O=C(C[Se]C(=O)c1ccccc1Nc1ccccc1)Nc1cccc(C(F)(F)F)c1 | NCI60 prostate subpanel (PC-3, DU-145) | total growth inhibition, inhibitor |  | five-dose |  | mean TGI | 3.46 µM
Cn1ncc2cc(-c3cncc(Cl)c3N3CCC4(CCNC4=O)CC3)ccc21 | LS174T | gene expression, microarray, refers to: RUNX1 mRNA |  | concentration not given, 24 h | relative to: untreated cells | log2 fold change | 2.59
COC1=C2CC(C)CC(OC)C(O)C(C)C=C(C)C(OC(N)=O)C(OC)C=CC=C(C)C(=O)NC(=CC1=O)C2=O (centres unmarked) | Rh30 | ChIP-seq, refers to: H3K36me3 peak |  | concentration not given, RBFA intron | relative to: untreated control | log fold change | -0.5
CNc1ncnc2c1ncn2C1OC(CO)C(O)C1O (centres unmarked) | mock-transfected cells | TGFα shedding, agonist |  | 1 nM | relative to: unstimulated vehicle control | AP-TGFα release | 0.23% and -0.67% and -0.18%
O=C(C[Se]C(=O)c1ccccc1Nc1cccc(C(F)(F)F)c1)Nc1cccc(C(F)(F)F)c1 | NCI60 prostate subpanel (PC-3, DU-145) | cell growth, inhibitor |  | five-dose |  | GI50 | 1.56 µM
Cc1n[nH]c(C)c1CCCOc1cc(C(=O)NCCCCC(NC(=O)CN2CCN(CC(=O)[O-])CCN(CC(=O)[O-])CCN(CC(=O)[O-])CC2)C(=O)NCC2CCC(C(=O)NC(Cc3ccc4ccccc4c3)C(=O)NCCCCC(NC(=O)NC(CCC(=O)O)C(=O)O)C(=O)O)CC2)ccc1F.[68Ga+3] (centres unmarked) | PC-3 (PSMA-negative) |  |  |  |  | uptake | 0.82 ± 0.05%
O=C(N[C@@H](Cc1ccc(OCCCCC2CCNCC2)cc1)C(=O)O)c1nc2ccccc2o1.O=C(O)C(F)(F)F | platelets | impedance aggregometry | human, diluted whole blood | 75 nM, together with: ADP | relative to: untreated | ADP-induced aggregation | 0.589 and 0.574 and 0.633 and 0.782 and 0.881
C#CCOC(=O)[C@@]1(C)C=C(C(=O)Nc2cccc(C(=O)Nc3ccc(C)c(Nc4nccc(-c5cccnc5)n4)c3)c2)C(=O)CC1 | SH-SY5Y MKK7 active | western blot, refers to: phospho-c-Jun Ser73 |  | 10 µM, unit not given | relative to: doxycycline without inhibitor | phospho-c-Jun level | 0.111
CN1CCCNC(=O)c2cccc(c2)C(=O)NCCCN(C)CCCNc2cccc3c2C(=O)c2cccc(c2C3=O)NCCC1 | SAS | RNA-seq, refers to: MT-TY mRNA |  | 1 µM, 6 h | relative to: untreated cells | log2 fold change | 1.24
CC1(C)CC[C@@]2(CO)C(=C3C=C[C@@H]4[C@@]5(C)CC[C@H](O)[C@@](C)(CO)[C@@H]5CC[C@@]4(C)[C@]3(C)C[C@@H]2O)C1 | HepG2, negative control siRNA | Western blot, refers to: Deptor |  | concentration not given, high dose, unit not given, together with: ethanol | relative to: β-actin | protein level | 1.1 and 1.61 and 1.47
CSC(=S)N/N=C(\C)c1ccc(Nc2nnc(-c3ccc(Cl)cc3)c3ccccc23)cc1 | HepG2 | cell growth or viability, MTT |  | 1.25 µM |  | cell death | 96.4%
CCN(CC)CC(=O)Nc1cccc(-n2cc(-c3ccc4ccc(-c5cn(-c6cccc(NC(=O)CN(CC)CC)c6)nn5)cc4c3)nn2)c1 | RCC4 | PCR angiogenesis array, refers to: EDN1 |  | 5 x IC50, 2 h, normoxia | relative to: untreated | fold regulation | 1.04
Cc1ncsc1-c1ccc(C(C)NC(=O)C2CC(O)CN2C(=O)C(NC(=O)CCCCCCCCCCN2CCCC(Nc3ncc(Cl)c(Nc4ccccc4S(=O)(=O)C(C)C)n3)C2)C(C)(C)C)cc1 (centres unmarked) | 22Rv1 | RNA-seq, refers to: ZC3H4 mRNA |  | concentration not given | relative to: DMSO | log2 fold change | -2.53

A few entries again:
Compound | target or system | assay | system | conditions | scale | endpoint | value
CNS(=O)(=O)Nc1nccc(Cc2c(C)c3ccc(Oc4ncccc4F)cc3oc2=O)c1F | RD | cell viability |  | 7 days |  | IC50 | 0.0165 µM
CC(C)c1ccc(N(C)c2ccc3c(c2)OCC[C@H]3CNc2cnccc2C(=O)O)cc1 | SW579 | cell viability, CellTiter-Glo |  | 7 days |  | IC50 | ≥ 10 µM
CO[C@@H]1[C@@H](OC(N)=O)[C@@H](O)[C@H](Oc2ccc3c(O)c(NC(=O)c4ccc(O)c(CC=C(C)C)c4)c(=O)oc3c2C)OC1(C)C | HCT-116 parental |  |  | 250 µM, replicate 1 |  | colony count | 1.55
COC1CN([C@H]2CC[C@H]([C@@]3(C)Oc4c(Cl)cc(C(=O)NCc5c(SC)cc(C)[nH]c5=O)c(C)c4O3)CC2)C1 |  | RNA-seq, refers to: DIXDC1 | human, whole blood | dose not given, 24 h | relative to: pretreatment baseline | log2 fold change | 1.05
